# Assay results collected from several papers.
# Protocols differ between the studies behind these lines. Several values in a cell are separate wells, animals, samples, runs or records. Numbers after ± are the reported error.
Structure (SMILES),assay,test system,setting,scale,measurement,value
CCCC[C@H](OC(C)=O)c1ccccc1C(=O)O,,"Sprague-Dawley rats, both sexes, whole blood","intravenous, 5 mg/kg single dose",,Vss,2.5 ± 1.23 L/kg
COCC1CN(C2CCN(c3cc(OC)c(Nc4ncc(Br)c(Nc5ccc6c(c5P(C)(C)=O)OCCO6)n4)cc3C)CC2)C1,first-in-human trial,human,"oral, 150 mg once daily",treatment-related,serious adverse events,16.7%
O=C(Nc1cnccc1-c1ccc([18F])nc1)c1ccnc(NC(=O)C2CC2)c1,,"FVB/NJ mouse, both sexes, liver","intravenous, 15 min, added: tariquidar 15 mg/kg iv",,SUV,8.62
Cc1cc(C)n(CCN(CCN)CCCCCCNC(=O)[C@@H](N)Cc2c[nH]cn2)n1.[99Tc+].[C-]#[O+].[C-]#[O+].[C-]#[O+],,BALB/c nude mice A549 xenograft,"intravenous, 4 h",reference: tumour over blood,tumour-to-tissue ratio,3
CC(C)(O)c1ncc([S@](N)(=O)=NC(=O)Nc2c3c(cc4c2CCC4)CCC3)s1,refers to: any system organ class,healthy human volunteers,"oral, 100 mg single dose, spray-dried dispersion suspension",,subjects with TEAEs,50%
O=C(c1ccccc1)N1C(c2ccc(OCC3CCN(CCCF)C3)cc2)c2ccc(O)cc2CC12CC2 (centres unmarked),,"C57BL/6J mouse, plasma","oral, 25 mg/kg",,half-life,230 min
O=C(O)CCCOc1ccc([18F])cc1-c1cc(-c2ccccc2C(F)(F)F)n(-c2ccccc2)n1,OLINDA/EXM from mouse data,"human adults, pancreas",,,absorbed dose,10.8 µGy/MBq
CN1CCC[C@]1(C)/C=C/S(=O)(=O)NC(=O)Nc1c2c(cc3c1CCC3)CC=C2,,"human, plasma","oral, 100 mg twice daily of parent drug, day 14, metabolite of dosed drug",,Tmax at second steady-state dose,3 h
COc1cccc(OC)c1-c1cc(C(=O)NC2(C(=O)O)C3CC4CC(C3)CC2C4)nn1-c1ccc(C(=O)NCCNC(=O)[C@H](CCCCNC(=O)[C@H](CC(C)C)NC(=O)C2OC2C(=O)O)NC(=O)CN2CCN(CC(=O)[O-])CCN(CC(=O)[O-])CCN(CC(=O)[O-])CC2)cc1C(C)C.[177Lu+3] (mixture of isomers),,"mouse HT-29 xenograft, large intestine","24 h post injection, biodistribution",,tissue uptake,0.37 %ID/g
COC1CN([C@H]2CC[C@H]([C@@]3(C)Oc4c(Cl)cc(C(=O)NCc5c(SC)cc(C)[nH]c5=O)c(C)c4O3)CC2)C1,"RNA-seq, refers to: EPOP","human, whole blood","dose not given, 24 h",reference: pretreatment baseline,log2 fold change,1.28
C=C(NC(=O)c1csc(-c2nc3c(cc2O)-c2nc(cs2)C(=O)NC(C(C)O)C(=O)NC(=C(C)OC)c2nc(cs2)C(=O)NC2c4nc(cs4)C(=O)NC(COC(=O)c4c5c6c(cccc6n4O)COC(=O)C(OC4CC(C)(O)C(N(C)C)C(C)O4)C2OC5)c2nc-3cs2)n1)C(N)=O (centres unmarked),,"Sprague-Dawley rat, female, plasma","intravenous infusion, 2 mg/kg single dose",,MRT(0-last),38.4 min
C=Cc1c(C)c2cc3nc(c(CC(=O)O)c4[nH]c(cc5nc(cc1[nH]2)C(C)=C5CC)c(C)c4C(=O)O)[C@@H](CCC(=O)OCCOCCOCCOC)[C@@H]3C,LC-MS,methanol-water 9:1,"1 h, pH 2.0",,compound loss,17%
N=C(N)NCCC[C@@H]1NC(=O)[C@H](CO)NC(=O)[C@@H](NC(=O)[C@H](CO)NC(=O)[C@H](CO)NC(=O)[C@H](Cc2c[nH]c3ccccc23)NC(=O)CNC(=O)[C@H](CO)NC(=O)[C@@H](N)Cc2c[nH]c3ccccc23)CSSC[C@@H](C(=O)NCC(=O)O)NC(=O)[C@H](CO)NC1=O,,"patients, plasma","intravenous, 10 mg/kg, thrice weekly, geometric mean",,volume of distribution (Vz),395 L
CC[C@H](C)[C@@H]1NC(=O)[C@H](Cc2ccc(O)cc2)NC(=O)CCCSC[C@@H](C(=O)N(CC(=O)N[C@@H](CC(C)C)C(=O)NCC(N)=O)Cc2ccc(F)cc2)NC(=O)[C@H](CC(N)=O)NC(=O)[C@H](CCC(N)=O)NC1=O,,human,"intranasal, 300 µg single dose",,serious adverse events,0%
COc1ccc(Nc2nc(Nc3ccc(OCCOCCOCC[18F])cc3)ncc2Br)cc1,,"ICR mice, S180 tumour","intravenous, 370 kBq, 120 min",reference: tumour over bone,uptake ratio,1.11
COc1cc(OC)c(/N=N/c2ccc(C(=O)NO)cc2F)c(OC)c1,,"Water, DMSO 0.5%","50 µM, E isomer, after 370 nm irradiation",,thermal half-life,76.2 min
CC(=O)N[C@H](CC(=O)O)C(=O)N[C@H](Cc1c[nH]c2ccccc12)C(=O)N[C@H](Cc1ccccc1)C(=O)N[C@H](CCCCN)C(=O)N[C@H](C)C(=O)N[C@H](Cc1ccccc1)C(=O)N[C@H](Cc1ccc(O)cc1)C(=O)N[C@H](CC(=O)O)C(=O)N[C@H](CCCCN)C(=O)N[C@@H](C(=O)N[C@H](C)C(=O)N[C@H](CCC(=O)O)C(=O)N[C@H](CCCCN)C(=O)N[C@H](Cc1ccccc1)C(=O)N[C@H](CCCCN)C(=O)N[C@H](CCC(=O)O)C(=O)N[C@H](C)C(=O)N[C@H](Cc1ccccc1)C(N)=O)C(C)C,,"human, plasma","oral, 500 mg daily, 4 h post-dose, day 13",,plasma concentration,110 ng/mL
CCCN(C)c1cc(C(F)(F)F)nc(SCCC(=O)NCc2ccco2)n1,,"Wistar rat, anaesthetised with isoflurane","intraperitoneal, 25 mg/kg, 2 h",reference: vehicle,systolic blood pressure,no effect
CC(C(=O)O)n1nc(Cn2cc3cc(OCC[18F])c(Cl)cc3n2)c2ccccc2c1=O (racemic),,"rat, bone",5 min,,tracer uptake,0.12 %ID/g
Cc1noc(C)c1Cn1cc(N2C(=O)CN(Cc3cccc(O[C@@H]4O[C@H](C(=O)O)[C@@H](O)[C@H](O)[C@H]4O)c3)C2=O)cn1,,"Sprague-Dawley rat, male","oral, 100 mg/kg of parent drug, 1 h",,plasma concentration,6640 ng/mL
CCCCN1C(=O)c2cccc3c(NCCCN4CCOCC4)ccc(c23)C1=O,,toluene,,,fluorescence quantum yield,0.52
CCC1C(COc2nccc3cc(C(N)=O)c(OC)cc23)NC(=O)C1F (centres unmarked),,"ICR mice, plasma","intravenous, 1 mg/kg",,AUC(0-t),0.452 ± 0.454 µg·h/mL
CC(C)C[C@H](NC(=O)[C@@H](CCCCNC(=O)[C@@H](Cc1ccccc1)NC(=O)CCCCCCCNC(=O)CN1CCN(CC(=O)O)CCN(CC(=O)O)CCN(CC(=O)O)CC1)NC(=O)[C@H](Cc1ccc(O)cc1)NC(=O)[C@H](CO)NC(=O)[C@H](Cc1c[nH]c2ccccc12)NC(=O)[C@H](Cc1c[nH]cn1)NC(=O)[C@@H]1CCC(=O)N1)C(=O)N[C@@H](CCCNC(=N)N)C(=O)N1CCC[C@H]1C(=O)NCC(N)=O [indium-111 labelled],,"male athymic nude mice, DU-145 prostate cancer xenograft, tumour","intravenous, 0.037 MBq, 1 h",reference: tumour over blood,tumour-to-tissue ratio,1.52
O=C(Nc1cnccc1-c1ccc([18F])cc1)c1ccnc(NC(=O)C2CC2)c1,,"FVB/NJ mice (both sexes), muscle","intravenous, dose not given, 120 min",,SUV,0.11
O=C(CCc1cn([C@@H]2O[C@H](C[18F])[C@@H](O)[C@H](O)[C@H]2O)nn1)Nc1ccc(-c2nnc(-c3ccccn3)nn2)nc1,PET imaging,"BALB/c nude mouse, LS174T xenograft, tumour, heart as blood","intravenous, 1 h, added: CC49-TCO 72 h before",reference: tumour over heart,tumour to blood ratio,0.78
C=CC(=O)Nc1cc(Nc2nccc(-c3cn(C)c4ccccc34)n2)c(OC)cc1N(C)CCNC,storage stability,human dried blood spots,"24 h, -80 °C, low QC level",,recovery,103%
COc1ccccc1NC(=O)OC1C(C)C(OC)C=COC2(C)Oc3c(C)c(O)c4c(c3C2=O)C2=NC3(CCN(CC(C)C)CC3)NC2=C(NC(=O)C(C)=CC=CC(C)C(O)C(C)C(O)C1C)C4=O (centres unmarked),,"CD-1 mouse, female, plasma","oral, 10 mg/kg",,oral bioavailability,22%
COc1cc(N2CCN(C(=O)C3CCCN3)CC2)ccc1Nc1ncc(Cl)c(Nc2ccccc2P(C)(C)=O)n1 (centres unmarked),,"nude mice, NCI-H3122 xenograft","oral, dose not given, day 5",,body weight,24.4 g and 22.9 g and 22.1 g and 23.4 g and 22.3 g
Cc1nn(-c2nc3c(F)cc(F)cc3s2)c(O)c1C(c1ccc(C(F)(F)F)cc1)c1c(C)nn(-c2nc3c(F)cc(F)cc3s2)c1O,,"ICR mouse, plasma","intraperitoneal, 10 mg/kg",,AUMC(0-inf) observed,205000 h²·ng/mL and 361000 h²·ng/mL and 307000 h²·ng/mL

# Excerpt of the above:
Structure (SMILES),assay,test system,setting,scale,measurement,value
O=C(CCc1cn([C@@H]2O[C@H](C[18F])[C@@H](O)[C@H](O)[C@H]2O)nn1)Nc1ccc(-c2nnc(-c3ccccn3)nn2)nc1,PET imaging,"BALB/c nude mouse, LS174T xenograft, tumour, heart as blood","intravenous, 1 h, added: CC49-TCO 72 h before",reference: tumour over heart,tumour to blood ratio,0.78
CC(C)C[C@H](NC(=O)[C@@H](CCCCNC(=O)[C@@H](Cc1ccccc1)NC(=O)CCCCCCCNC(=O)CN1CCN(CC(=O)O)CCN(CC(=O)O)CCN(CC(=O)O)CC1)NC(=O)[C@H](Cc1ccc(O)cc1)NC(=O)[C@H](CO)NC(=O)[C@H](Cc1c[nH]c2ccccc12)NC(=O)[C@H](Cc1c[nH]cn1)NC(=O)[C@@H]1CCC(=O)N1)C(=O)N[C@@H](CCCNC(=N)N)C(=O)N1CCC[C@H]1C(=O)NCC(N)=O [indium-111 labelled],,"male athymic nude mice, DU-145 prostate cancer xenograft, tumour","intravenous, 0.037 MBq, 1 h",reference: tumour over blood,tumour-to-tissue ratio,1.52
COc1ccccc1NC(=O)OC1C(C)C(OC)C=COC2(C)Oc3c(C)c(O)c4c(c3C2=O)C2=NC3(CCN(CC(C)C)CC3)NC2=C(NC(=O)C(C)=CC=CC(C)C(O)C(C)C(O)C1C)C4=O (centres unmarked),,"CD-1 mouse, female, plasma","oral, 10 mg/kg",,oral bioavailability,22%
CCCN(C)c1cc(C(F)(F)F)nc(SCCC(=O)NCc2ccco2)n1,,"Wistar rat, anaesthetised with isoflurane","intraperitoneal, 25 mg/kg, 2 h",reference: vehicle,systolic blood pressure,no effect
O=C(Nc1cnccc1-c1ccc([18F])cc1)c1ccnc(NC(=O)C2CC2)c1,,"FVB/NJ mice (both sexes), muscle","intravenous, dose not given, 120 min",,SUV,0.11
